Measured values pooled from the literature.
Parts stem from different laboratories: compare values within a part only. Positions count from the first letter of the parent shown.
UniProt O24410, sequence (whole entry, looked up): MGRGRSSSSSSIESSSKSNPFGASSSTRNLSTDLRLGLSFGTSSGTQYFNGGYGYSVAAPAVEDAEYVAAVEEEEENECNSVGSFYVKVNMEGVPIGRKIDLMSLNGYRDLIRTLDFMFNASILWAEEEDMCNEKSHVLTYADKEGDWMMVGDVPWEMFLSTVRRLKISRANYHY
UniProt O24407, sequence (whole entry, looked up): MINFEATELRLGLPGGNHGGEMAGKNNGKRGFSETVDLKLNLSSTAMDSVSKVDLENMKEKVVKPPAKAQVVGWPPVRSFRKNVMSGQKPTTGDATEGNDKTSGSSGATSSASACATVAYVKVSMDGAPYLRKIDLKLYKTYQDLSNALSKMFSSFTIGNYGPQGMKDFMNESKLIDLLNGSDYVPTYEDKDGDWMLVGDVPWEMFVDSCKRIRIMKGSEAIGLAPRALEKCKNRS
UniProt Q8RYC6, sequence (whole entry, looked up): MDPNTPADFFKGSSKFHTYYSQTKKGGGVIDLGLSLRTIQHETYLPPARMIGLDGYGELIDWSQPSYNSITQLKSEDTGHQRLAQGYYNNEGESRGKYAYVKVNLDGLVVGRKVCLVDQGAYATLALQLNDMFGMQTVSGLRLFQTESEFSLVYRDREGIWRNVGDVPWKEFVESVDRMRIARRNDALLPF
UniProt P93022, sequence (whole entry, looked up): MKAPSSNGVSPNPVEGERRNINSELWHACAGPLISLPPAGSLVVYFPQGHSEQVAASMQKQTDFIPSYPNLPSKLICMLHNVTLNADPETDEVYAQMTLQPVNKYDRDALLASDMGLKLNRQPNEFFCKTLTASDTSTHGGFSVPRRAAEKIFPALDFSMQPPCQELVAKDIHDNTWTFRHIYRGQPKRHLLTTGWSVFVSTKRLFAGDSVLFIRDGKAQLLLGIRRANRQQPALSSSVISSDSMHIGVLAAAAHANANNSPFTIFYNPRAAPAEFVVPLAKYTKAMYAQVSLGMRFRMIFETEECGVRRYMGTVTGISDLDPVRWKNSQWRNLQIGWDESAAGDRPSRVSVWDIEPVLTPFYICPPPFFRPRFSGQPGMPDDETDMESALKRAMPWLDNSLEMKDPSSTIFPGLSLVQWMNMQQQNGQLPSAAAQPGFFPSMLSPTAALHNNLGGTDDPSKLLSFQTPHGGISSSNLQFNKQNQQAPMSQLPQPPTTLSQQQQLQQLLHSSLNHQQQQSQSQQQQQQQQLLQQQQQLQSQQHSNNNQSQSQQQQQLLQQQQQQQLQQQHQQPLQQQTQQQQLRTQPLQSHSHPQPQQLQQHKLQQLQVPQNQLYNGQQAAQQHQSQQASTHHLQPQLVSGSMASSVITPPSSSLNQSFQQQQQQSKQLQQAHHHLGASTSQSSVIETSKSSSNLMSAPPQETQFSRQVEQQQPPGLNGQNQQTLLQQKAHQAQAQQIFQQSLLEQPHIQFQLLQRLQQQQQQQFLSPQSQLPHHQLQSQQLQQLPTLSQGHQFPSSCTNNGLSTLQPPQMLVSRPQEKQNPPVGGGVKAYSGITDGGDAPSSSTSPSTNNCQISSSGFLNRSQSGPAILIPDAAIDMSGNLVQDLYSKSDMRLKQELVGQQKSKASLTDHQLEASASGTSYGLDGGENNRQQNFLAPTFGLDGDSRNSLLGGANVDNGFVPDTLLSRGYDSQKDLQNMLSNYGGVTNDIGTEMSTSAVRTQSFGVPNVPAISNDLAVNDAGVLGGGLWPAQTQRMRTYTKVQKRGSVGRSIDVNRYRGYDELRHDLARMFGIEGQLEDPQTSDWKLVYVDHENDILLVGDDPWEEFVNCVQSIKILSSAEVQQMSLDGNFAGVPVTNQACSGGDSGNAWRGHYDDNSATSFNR
UniProt Q8L7G0, sequence (whole entry, looked up): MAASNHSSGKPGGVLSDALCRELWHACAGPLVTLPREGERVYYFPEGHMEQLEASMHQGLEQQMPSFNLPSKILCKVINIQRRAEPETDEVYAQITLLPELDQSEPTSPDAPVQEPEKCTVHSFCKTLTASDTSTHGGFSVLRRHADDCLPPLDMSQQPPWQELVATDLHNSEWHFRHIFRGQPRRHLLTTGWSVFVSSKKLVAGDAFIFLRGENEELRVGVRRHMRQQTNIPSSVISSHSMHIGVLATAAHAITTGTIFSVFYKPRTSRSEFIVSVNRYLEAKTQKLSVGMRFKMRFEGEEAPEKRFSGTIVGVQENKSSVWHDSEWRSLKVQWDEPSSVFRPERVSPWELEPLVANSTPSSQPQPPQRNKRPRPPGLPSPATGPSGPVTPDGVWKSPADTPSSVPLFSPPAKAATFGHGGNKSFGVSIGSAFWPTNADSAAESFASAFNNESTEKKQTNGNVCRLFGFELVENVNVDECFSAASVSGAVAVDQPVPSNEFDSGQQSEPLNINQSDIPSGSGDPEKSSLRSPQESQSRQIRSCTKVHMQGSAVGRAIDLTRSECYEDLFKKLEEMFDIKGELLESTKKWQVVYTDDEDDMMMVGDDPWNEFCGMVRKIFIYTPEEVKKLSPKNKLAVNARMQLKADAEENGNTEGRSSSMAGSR
UniProt Q38832, sequence (whole entry, looked up): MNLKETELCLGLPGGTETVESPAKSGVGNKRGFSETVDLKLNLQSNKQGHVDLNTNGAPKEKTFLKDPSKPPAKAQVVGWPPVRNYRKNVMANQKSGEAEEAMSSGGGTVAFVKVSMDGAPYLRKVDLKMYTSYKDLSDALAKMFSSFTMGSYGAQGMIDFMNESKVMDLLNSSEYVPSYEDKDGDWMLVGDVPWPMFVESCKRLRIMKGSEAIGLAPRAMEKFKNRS
UniProt Q38830, sequence (whole entry, looked up): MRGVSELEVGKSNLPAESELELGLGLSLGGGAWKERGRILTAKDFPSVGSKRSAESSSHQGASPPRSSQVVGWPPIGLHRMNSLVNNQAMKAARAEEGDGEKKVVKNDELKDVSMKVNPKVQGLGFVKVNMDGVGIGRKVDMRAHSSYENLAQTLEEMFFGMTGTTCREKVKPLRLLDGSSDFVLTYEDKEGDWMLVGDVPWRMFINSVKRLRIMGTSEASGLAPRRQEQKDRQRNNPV
UniProt Q9FKM7, sequence (whole entry, looked up): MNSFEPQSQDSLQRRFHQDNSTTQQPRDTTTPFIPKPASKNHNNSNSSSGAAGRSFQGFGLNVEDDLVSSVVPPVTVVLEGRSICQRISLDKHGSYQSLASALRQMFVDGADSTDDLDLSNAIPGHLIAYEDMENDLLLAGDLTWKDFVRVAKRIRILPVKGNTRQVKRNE
UniProt Q9ZPY6, sequence (whole entry, looked up): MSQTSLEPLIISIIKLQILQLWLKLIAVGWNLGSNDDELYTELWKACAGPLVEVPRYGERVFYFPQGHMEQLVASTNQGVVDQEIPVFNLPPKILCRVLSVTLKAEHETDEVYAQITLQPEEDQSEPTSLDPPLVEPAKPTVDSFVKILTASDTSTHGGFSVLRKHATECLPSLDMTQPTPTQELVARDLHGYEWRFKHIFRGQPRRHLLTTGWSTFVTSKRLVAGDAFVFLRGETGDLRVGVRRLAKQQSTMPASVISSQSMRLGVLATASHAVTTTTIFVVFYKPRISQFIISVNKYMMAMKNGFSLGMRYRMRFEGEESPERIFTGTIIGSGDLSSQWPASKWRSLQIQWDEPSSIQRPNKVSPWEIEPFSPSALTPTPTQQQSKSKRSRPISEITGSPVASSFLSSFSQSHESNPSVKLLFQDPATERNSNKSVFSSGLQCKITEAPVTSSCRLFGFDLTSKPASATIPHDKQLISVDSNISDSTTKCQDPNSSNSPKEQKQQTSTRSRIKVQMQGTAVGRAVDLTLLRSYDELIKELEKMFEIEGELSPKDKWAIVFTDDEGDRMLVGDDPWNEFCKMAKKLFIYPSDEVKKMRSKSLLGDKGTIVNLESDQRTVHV

Series 1 — technique: RNA Bind-n-Seq; form: RNA; sample: in vitro; tested at: 1 µM; setting: whole 134-nt RNA, ends assumed; together with: 150 mM KCl; reference: input library; reading: higher = stronger binding
Target: Ras GTPase-activating protein-binding protein 1, C-terminal RGG region (G3BP1, Homo sapiens, UniProt Q13283)
UniProt Q13283, sequence (whole entry, looked up): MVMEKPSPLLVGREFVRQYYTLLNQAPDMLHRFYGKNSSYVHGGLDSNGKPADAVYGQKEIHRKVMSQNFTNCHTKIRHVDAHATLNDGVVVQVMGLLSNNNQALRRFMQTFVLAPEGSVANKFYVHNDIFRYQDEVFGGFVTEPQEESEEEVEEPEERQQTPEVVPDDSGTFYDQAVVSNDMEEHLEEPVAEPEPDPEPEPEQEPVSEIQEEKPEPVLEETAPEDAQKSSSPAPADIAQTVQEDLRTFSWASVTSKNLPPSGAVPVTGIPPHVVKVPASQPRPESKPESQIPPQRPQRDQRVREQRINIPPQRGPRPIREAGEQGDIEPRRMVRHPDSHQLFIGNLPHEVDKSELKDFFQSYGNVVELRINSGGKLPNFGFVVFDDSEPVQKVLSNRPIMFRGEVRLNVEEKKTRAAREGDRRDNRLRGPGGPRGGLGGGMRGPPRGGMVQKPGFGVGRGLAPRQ
The log2 enrichment of `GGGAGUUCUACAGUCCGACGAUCACCAUGCAGGUGGGCAUCUUUGGGAAGUGGGGCAAGGGGGGGAUAGGGAGGGGGGUAACACUUUGGGAACAGGUGGUCCCGGGUCGUUUCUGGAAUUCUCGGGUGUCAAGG` is reported as 1.73.
With `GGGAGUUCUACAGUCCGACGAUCUCCUGUGCUACACAUCGUAUGUACCGAAUCGGGGUUUUUGGGGAAAAAAAGGGGUGGGGAAAGUAUUAUGUUACGCCGUUCGGAUCUGCAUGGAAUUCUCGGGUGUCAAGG` the log2 enrichment was 1.39.
For `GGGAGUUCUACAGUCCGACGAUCUUAGGGUCAUGUGAAGGUGGUGCGCUACUUAGUCAAAGAAGUCAAUCAGUUUCCAUCAGAUUCUGAAUGUAUGAGAUACAUAGCAACCAUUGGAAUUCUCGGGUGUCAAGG`, the log2 enrichment was -1.85.
`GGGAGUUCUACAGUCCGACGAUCCAAGUCCUGUGCUACACAUCGUAUGUACCGAAUCGGAAAAAGGAAAAAGGUUUGGAAAGUAUUAUGUUACGCCGUUCGGAUCUGCACUUCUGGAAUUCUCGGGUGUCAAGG` has a log2 enrichment of -2.08.
`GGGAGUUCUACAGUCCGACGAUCUGGCCCUGGAGGCAUGCGGGGAGGAAGAGGUGGCCUCAUGGAUCGUGGUGGUCCCGGUGGAAUGUUCAGAGGUGGCCGUGGUGGAGACAGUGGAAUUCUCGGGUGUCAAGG` gave a log2 enrichment of 2.06.
`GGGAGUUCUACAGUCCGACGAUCUAACUUUAGAUGAGGAUCUGAUGGAUAUGGCAGUGGACGUGGAUUUGGGGAUGGCUAUAAUGGGUAUGGAGGAGGACCUGGAGGUGGCAAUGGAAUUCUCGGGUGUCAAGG` gave a log2 enrichment of -1.65.
`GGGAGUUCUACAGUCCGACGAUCCCUGUGCUACACAUCGUAUGUACCGAAUCAAAUUUUUUUAAAUUUUUAAACCCCCCCAAAAAAGUAUUAUGUUACGCCGUUCGGAUCUGCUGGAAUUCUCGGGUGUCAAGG` gave a log2 enrichment of -0.806.
For `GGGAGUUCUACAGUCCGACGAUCGUCCUGUGCUACACAUCGUAUGUACCGAAUCGGGGUUUGGGGAAAAAGGGGUUUGGGGAAAGUAUUAUGUUACGCCGUUCGGAUCUGCACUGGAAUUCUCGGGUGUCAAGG`, the log2 enrichment was 3.06.
`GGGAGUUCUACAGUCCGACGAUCCUCAAGUCCUGUGCUACACAUCGUAUGUACCGAAUCGGGAAGGGAAGGGGAAGGAAAGUAUUAUGUUACGCCGUUCGGAUCUGCACUUCCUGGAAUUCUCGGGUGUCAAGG` gave a log2 enrichment of -0.537.
The log2 enrichment of `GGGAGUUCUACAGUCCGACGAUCACCAUGCAGGUGGGCAUCUUUGGGAAGUGGGGCAAGGGGGGGAUAGGGGGGGGGGUAACACUUUGGGAACAGGUGGUCCCAGGUCGUUUCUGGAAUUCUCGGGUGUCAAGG` is reported as 2.27.
`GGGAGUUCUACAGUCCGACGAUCUGGCCCUGGUGGCAUGCGGGGAGGAAGAGGUGGCCUCAUGGAUCGUGGUGGUCCCGGUGGAAUGUUCAGAAGUGGCCGUGGUGGAGACAGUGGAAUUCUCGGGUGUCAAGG` gave a log2 enrichment of 2.91.
For `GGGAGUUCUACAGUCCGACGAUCCAAGUCCUGUGCUACACAUCGUAUGUACCGAAUCGGGUUUGGGGUUUGGGUUUGGGAAAGUAUUAUGUUACGCCGUUCGGAUCUGCACUUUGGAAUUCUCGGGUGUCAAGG`, the log2 enrichment was 1.97.
With `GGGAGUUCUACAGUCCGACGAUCGCAAAAAGUAAAAACAAAUGGAAAUGCUUCGGAUAGUGGCAGGGGUGGGGGUUGCUAAGGAAAGGGUGGGAUGGGAGUGGGUAAAGAGUUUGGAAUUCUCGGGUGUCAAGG` the log2 enrichment was 1.7.
The log2 enrichment of `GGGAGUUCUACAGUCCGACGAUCGUCCUGUGCUACACAUCGUAUGUACCGAAUCGGGGUUUUUGGGGUGGGGUUUUUGGGGAAAGUAUUAUGUUACGCCGUUCGGAUCUGCACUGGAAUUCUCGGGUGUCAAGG` is reported as 1.81.

Series 2 — Sequence: B1 (IAA5); technique: two-hybrid; reading: higher = firmer interaction
B1: IAA5 (Arabidopsis thaliana, UniProt P33078); chain MANESNNLGLEITELRLGLPGDIVVSGESISGKKRASPEVEIDLKCEPAKKSQVVGWPPVCSYRRKNSLERTKSSYVKVSVDGAAFLRKIDLEMYKCYQDLASALQILFGCYINFDDTLKESECVPIYEDKDGDWMLAGDVPWEMFLGSCKRLRIMKRSCNRG
It gave 2 for positive tests (IAA32 (Arabidopsis thaliana, UniProt Q8RYC6); reference: out of 4 tests).
The positive tests was 0 (ARF1 538-665 (Arabidopsis thaliana, UniProt Q8L7G0); reference: out of 4 tests).
For ARF7 1030-1164 (Arabidopsis thaliana, UniProt P93022); reference: out of 3 tests: positive tests read 1.
The positive tests was 4 (IAA14 (Arabidopsis thaliana, UniProt Q38832); reference: out of 4 tests).
IAA12 (Arabidopsis thaliana, UniProt Q38830); reference: out of 4 tests — positive tests: 3.
For IAA16 (Arabidopsis thaliana, UniProt O24407); reference: out of 4 tests: positive tests read 3.
IAA20 (Arabidopsis thaliana, UniProt O24410); weak activation fusion; reference: out of 4 tests — positive tests: 2.
It gave 0 for positive tests (ARF11 500-622 (Arabidopsis thaliana, UniProt Q9ZPY6); reference: out of 4 tests).
IAA33 (Arabidopsis thaliana, UniProt Q9FKM7); reference: out of 4 tests — positive tests: 2.

Series 3 — technique: RNA Bind-n-Seq; form: RNA; sample: in vitro; tested at: 365 nM; reference: no-protein control; reading: higher = stronger binding
Target: RNA binding protein fox-1 homolog 2, RRM domain, GST-SBP tag (RBFOX2, Homo sapiens, UniProt O43251-10, residues 100-194)
Setting: natural RNA segment, single round, ends assumed
Target sequence (chain): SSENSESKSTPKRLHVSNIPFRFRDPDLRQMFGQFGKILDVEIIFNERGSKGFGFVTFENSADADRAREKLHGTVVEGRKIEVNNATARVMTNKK
`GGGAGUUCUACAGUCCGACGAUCACAGUAACCACAUGCGGCUGUUUAAAGUUAAGCCAAUUAAAAUCACAUAAGAUUAAAAAUUCCUUCCUCAGUUGCACUAACCACGUUUCUAGAGGCGUCACUGUAUGUAGUGGAAUUCUCGGGUGCCAA` — result for “RBNS enrichment (R)”: 0.558.
Under “RBNS enrichment (R)”, `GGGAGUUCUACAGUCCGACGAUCUCAGGUAGCUCUAGGAGCACCAUCCUGCCCUAGCAGAGCCCAGGCCUUGCCCUCAUGAAGCAUCAUUGAAAUAGCAGGAGCAUGUUGAUUUCUUGGUUAGGUUGCAUUAUUGGAAUUCUCGGGUGCCAA` is recorded as 9.29.
For `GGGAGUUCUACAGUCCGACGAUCCGCGUCCUGUAGCUAGAGGCUCGAACCUACCAGCCCGCGACCGCCACCCACCCAGCGGUAUUGGAAGUGGCGACCAGGGGUGACCCGUCGUGGAGCCACUUCUCGCACUGUGGAAUUCUCGGGUGCCAA`, “RBNS enrichment (R)” read 0.196.
`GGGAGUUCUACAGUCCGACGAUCCUGAGGUCUGUGCUUGAAAGCCGUCCGAAGGCAUUCUUGUUAGCUUUGCUUUUCUCCCCAUAUCCCAAGGCGAAGCGCUGAGAUUCUUCCAUCUAAAAAACCCUCGACCCUGGAAUUCUCGGGUGCCAA`: “RBNS enrichment (R)” 0.627.
For `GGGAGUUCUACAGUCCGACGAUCUAUAUUUGCAUACCCUUUUAUUUCCAAAACAAAAUGAGCUCUUUUCCCUUGAGACAAUAUCAUUCCCAUAUACCUCUCAUUGUCUUGGCUUUCUUAUCCAAGACGAGAAGUGGAAUUCUCGGGUGCCAA`, “RBNS enrichment (R)” read 1.1.
`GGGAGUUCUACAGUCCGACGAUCGGCAAGUAGCAGCCUGAGGAAGAUGCUGGCUUGUCUGUACCGUCACGUCUGCAGCAGAGGCCCAGUAGCACCGAAUGGUGUCCAAUAAGCUCUGAGCAGUGGCAAUAGAAUGGAAUUCUCGGGUGCCAA` — result for “RBNS enrichment (R)”: 0.319.
For `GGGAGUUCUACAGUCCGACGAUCCAUAUAAAUACUCAACCACAUUUCAGCUUAAGCUUCUAAUUUCUCAAGAAGUUGAAACAGUUAGUUAUGUAGUUGAAGCAAUUUGUGUGCAAAGCCUACAUCUAAACACUUGGAAUUCUCGGGUGCCAA`, “RBNS enrichment (R)” read 0.282.
`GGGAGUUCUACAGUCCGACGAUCAGCUUCAUUUUUCUUUUAUCCUGUCUGUCCUAAUAAAAACAAAAAUGGCCAAAAAGUGGAGAGGAAAGAAAAAGCUUCCACUUUUUAAAAUUUGUUUUGUAUUAGUUAUUUGGAAUUCUCGGGUGCCAA` — result for “RBNS enrichment (R)”: 0.87.
`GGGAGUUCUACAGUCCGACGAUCCACCUCCCACAAUUUAGGCCGAAGCUAAUAUCCCAGAAAGACUAUAUAUUGUUUGUUUGUUUGUUUGUUGACAGAGAAAAAUUGGUAUUUAUUUUUCUAUUAUAGCCAUAUGGAAUUCUCGGGUGCCAA`: “RBNS enrichment (R)” 21.9.
`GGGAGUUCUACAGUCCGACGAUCCCAAGCAAGGAUUUUGCACCGCAGCUGCUUGGAUGUAUUUAAACUCCUCAUGGUUCAGAUAGCUAUUUCUGAAUGUAUAUUUCAUGGCUUCAAAGCAGCUACUCAACUAAUGGAAUUCUCGGGUGCCAA`: “RBNS enrichment (R)” 0.64.
For `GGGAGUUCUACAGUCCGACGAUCUUCAUUUUAGCUUCAAAACAAGCUGGGCACACUGUUAAAUCAUGAUUUUGCAGAACCUUUGGUUUUGGACAGUUUCAUUUUUUUGGAUUUGGGAUAGAUUACAUAGGAGUUGGAAUUCUCGGGUGCCAA`, “RBNS enrichment (R)” read 0.347.
`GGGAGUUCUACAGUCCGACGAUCGCAGAGCUGCCCUGGAGUACUGACUUGUCUCUCCCUCCUUUGUCAAGGUCCAUGUUUUUCUGGCUCUUCCUGCACACUCAUCCCUAGAUUAUGAGCGUUAAUGUACGAAAUGGAAUUCUCGGGUGCCAA`: “RBNS enrichment (R)” 0.408.

Series 4 — target: CCND1, cyclin fold, Cln2 fusion (human); technique: yeast growth competition, sequencing; sample: yeast; setting: weak parent motif; reference: not given; reading: higher = stronger binding
Starting sequence: SLBP docking peptide (human); ARYKRKLLINDFG; partner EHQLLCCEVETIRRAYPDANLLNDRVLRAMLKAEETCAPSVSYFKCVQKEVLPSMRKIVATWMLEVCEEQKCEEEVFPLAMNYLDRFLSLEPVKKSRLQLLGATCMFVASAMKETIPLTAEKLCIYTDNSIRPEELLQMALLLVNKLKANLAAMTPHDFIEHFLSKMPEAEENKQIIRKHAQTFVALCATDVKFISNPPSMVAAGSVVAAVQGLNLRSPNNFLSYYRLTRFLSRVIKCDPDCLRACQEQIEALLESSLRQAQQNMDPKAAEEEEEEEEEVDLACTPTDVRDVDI
`ARYKRKLWINDFG [L8W]` — result for “normalised enrichment score”: 0.584.
`ARYKRKSLINDFG [L7S]`: “normalised enrichment score” -0.167.
`VRYKRKLLINDFG [A1V]` — result for “normalised enrichment score”: 0.0231.
Under “normalised enrichment score”, `ARYKCKLLINDFG [R5C]` is recorded as 0.527.
Under “normalised enrichment score”, `ARYKRKLLILDFG [N10L]` is recorded as 0.937.
`ARYQRKLLINDFG [K4Q]`: “normalised enrichment score” 0.283.
`ARYKRKLLINNFG [D11N]` — result for “normalised enrichment score”: -0.242.
`ARSKRKLLINDFG [Y3S]` — result for “normalised enrichment score”: 0.978.
For `ASYKRKLLINDFG [R2S]`, “normalised enrichment score” read -0.402.
For `ARRKRKLLINDFG [Y3R]`, “normalised enrichment score” read -0.339.
`ARYKRKLLINDMG [F12M]`: “normalised enrichment score” -0.393.
Under “normalised enrichment score”, `ARYMRKLLINDFG [K4M]` is recorded as 0.292.
`ARYKRKLLINEFG [D11E]` — result for “normalised enrichment score”: 0.00169.
Under “normalised enrichment score”, `ARYKRKLLIFDFG [N10F]` is recorded as 0.674.
`ARYKRKGLINDFG [L7G]` — result for “normalised enrichment score”: -0.219.
`AKYKRKLLINDFG [R2K]`: “normalised enrichment score” 0.363.
`ARYKRNLLINDFG [K6N]` — result for “normalised enrichment score”: 0.39.
For `ARYKRKLLINDGG [F12G]`, “normalised enrichment score” read -0.101.
For `ARYKRKLLINKFG [D11K]`, “normalised enrichment score” read 0.345.
For `SRYKRKLLINDFG [A1S]`, “normalised enrichment score” read 0.312.
Under “normalised enrichment score”, `ARYKAKALINDFG [R5A L7A]` is recorded as -0.164.
`ARYKRVLLINDFG [K6V]`: “normalised enrichment score” 0.416.
`ARYKRKLGINDFG [L8G]` — result for “normalised enrichment score”: 0.192.
For `ARYKRKLLINYFG [D11Y]`, “normalised enrichment score” read 0.993.
Under “normalised enrichment score”, `ADYKRKLLINDFG [R2D]` is recorded as 0.45.

A few entries again (series 4):
For `ARYKRKLLINYFG [D11Y]`, “normalised enrichment score” read 0.993.
`ARYKRKLGINDFG [L8G]` — result for “normalised enrichment score”: 0.192.
`ARYKRKLLINNFG [D11N]` — result for “normalised enrichment score”: -0.242.
For `ARRKRKLLINDFG [Y3R]`, “normalised enrichment score” read -0.339.
